Experimental data gathered from unrelated publications.
Lines come from different studies, so protocols differ. ± marks the error that the study gave.
uncharacterized protein: uncharacterized protein (Anopheles coluzzii, UniProt A0A6E8VQK1)
Sequence of UniProt Q9ULW8 (whole entry, looked up): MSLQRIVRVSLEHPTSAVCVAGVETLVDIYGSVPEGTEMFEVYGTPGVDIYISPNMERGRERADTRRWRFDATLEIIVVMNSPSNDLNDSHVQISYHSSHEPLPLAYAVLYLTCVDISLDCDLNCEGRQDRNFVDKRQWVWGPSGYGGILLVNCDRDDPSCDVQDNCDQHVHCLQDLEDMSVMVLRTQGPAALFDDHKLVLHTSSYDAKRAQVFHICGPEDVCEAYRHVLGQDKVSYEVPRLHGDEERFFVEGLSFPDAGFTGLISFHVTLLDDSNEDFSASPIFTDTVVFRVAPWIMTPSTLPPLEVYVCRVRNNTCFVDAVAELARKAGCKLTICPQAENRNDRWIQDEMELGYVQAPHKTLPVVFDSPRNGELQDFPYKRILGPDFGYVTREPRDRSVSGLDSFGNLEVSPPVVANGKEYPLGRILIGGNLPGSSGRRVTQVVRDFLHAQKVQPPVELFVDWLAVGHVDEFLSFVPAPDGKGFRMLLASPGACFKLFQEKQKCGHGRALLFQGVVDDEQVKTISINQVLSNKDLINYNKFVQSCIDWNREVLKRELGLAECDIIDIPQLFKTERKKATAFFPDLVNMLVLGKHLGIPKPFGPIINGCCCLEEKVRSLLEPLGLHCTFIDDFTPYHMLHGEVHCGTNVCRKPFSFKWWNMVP
Sequence of UniProt P48729 (whole entry, looked up): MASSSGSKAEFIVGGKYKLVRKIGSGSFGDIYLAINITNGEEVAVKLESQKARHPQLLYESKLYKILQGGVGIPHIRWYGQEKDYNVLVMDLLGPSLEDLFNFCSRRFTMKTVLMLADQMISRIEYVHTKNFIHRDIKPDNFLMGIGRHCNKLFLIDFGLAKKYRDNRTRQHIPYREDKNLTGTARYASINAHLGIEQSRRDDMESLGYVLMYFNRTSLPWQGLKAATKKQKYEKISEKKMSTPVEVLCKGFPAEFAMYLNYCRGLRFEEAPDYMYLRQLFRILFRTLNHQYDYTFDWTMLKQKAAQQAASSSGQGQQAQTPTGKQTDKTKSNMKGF
Sequence of UniProt O35783 (whole entry, looked up): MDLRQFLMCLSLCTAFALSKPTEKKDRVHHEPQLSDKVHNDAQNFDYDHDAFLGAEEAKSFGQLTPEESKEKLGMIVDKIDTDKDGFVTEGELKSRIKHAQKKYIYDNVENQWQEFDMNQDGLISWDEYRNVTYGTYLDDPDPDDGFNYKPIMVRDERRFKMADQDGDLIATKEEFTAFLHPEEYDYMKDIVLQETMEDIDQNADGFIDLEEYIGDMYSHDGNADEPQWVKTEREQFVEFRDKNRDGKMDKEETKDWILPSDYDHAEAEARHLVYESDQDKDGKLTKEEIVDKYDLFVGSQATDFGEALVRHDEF
Sequence of UniProt P07949 (whole entry, looked up): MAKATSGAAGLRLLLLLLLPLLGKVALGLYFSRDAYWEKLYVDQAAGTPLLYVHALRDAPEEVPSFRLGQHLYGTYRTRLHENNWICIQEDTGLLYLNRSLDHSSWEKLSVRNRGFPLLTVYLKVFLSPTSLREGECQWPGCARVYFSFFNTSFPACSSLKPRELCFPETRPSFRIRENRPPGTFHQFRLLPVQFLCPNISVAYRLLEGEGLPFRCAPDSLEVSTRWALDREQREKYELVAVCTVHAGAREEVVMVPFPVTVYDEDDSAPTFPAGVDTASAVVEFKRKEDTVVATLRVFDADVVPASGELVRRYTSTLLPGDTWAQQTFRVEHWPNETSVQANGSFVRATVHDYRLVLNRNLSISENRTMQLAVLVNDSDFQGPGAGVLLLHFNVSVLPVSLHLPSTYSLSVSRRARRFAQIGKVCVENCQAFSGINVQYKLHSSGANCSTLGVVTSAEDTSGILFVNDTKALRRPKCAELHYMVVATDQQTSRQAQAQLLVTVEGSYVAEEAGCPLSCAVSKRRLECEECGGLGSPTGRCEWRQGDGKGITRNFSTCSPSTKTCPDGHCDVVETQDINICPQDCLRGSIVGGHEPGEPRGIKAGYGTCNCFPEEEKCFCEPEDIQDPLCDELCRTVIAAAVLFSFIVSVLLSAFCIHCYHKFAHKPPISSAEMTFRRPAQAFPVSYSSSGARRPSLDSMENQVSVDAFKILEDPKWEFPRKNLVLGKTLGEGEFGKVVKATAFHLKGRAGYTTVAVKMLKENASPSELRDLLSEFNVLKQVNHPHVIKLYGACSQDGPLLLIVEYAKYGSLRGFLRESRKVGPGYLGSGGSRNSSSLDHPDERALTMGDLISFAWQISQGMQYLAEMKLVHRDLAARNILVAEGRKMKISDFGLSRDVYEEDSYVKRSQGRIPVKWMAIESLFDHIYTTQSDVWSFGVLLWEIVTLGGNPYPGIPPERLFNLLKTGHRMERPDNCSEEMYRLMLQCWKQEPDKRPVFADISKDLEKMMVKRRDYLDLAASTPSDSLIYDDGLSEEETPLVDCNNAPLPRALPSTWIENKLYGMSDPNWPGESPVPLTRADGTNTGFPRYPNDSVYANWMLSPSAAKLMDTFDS
Sequence of UniProt Q9NYM4 (whole entry, looked up): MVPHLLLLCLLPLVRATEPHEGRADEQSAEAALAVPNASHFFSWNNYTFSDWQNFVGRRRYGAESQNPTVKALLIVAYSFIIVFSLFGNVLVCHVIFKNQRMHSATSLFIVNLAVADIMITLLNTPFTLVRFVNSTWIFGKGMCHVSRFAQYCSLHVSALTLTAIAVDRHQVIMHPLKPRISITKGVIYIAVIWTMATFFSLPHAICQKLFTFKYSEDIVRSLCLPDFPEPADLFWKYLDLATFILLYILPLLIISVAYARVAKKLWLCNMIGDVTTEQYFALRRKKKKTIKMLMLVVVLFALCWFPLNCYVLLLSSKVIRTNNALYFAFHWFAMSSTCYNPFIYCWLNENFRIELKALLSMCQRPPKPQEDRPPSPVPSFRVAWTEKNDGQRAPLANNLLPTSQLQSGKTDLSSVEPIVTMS
Sequence of UniProt Q32MK0 (whole entry, looked up): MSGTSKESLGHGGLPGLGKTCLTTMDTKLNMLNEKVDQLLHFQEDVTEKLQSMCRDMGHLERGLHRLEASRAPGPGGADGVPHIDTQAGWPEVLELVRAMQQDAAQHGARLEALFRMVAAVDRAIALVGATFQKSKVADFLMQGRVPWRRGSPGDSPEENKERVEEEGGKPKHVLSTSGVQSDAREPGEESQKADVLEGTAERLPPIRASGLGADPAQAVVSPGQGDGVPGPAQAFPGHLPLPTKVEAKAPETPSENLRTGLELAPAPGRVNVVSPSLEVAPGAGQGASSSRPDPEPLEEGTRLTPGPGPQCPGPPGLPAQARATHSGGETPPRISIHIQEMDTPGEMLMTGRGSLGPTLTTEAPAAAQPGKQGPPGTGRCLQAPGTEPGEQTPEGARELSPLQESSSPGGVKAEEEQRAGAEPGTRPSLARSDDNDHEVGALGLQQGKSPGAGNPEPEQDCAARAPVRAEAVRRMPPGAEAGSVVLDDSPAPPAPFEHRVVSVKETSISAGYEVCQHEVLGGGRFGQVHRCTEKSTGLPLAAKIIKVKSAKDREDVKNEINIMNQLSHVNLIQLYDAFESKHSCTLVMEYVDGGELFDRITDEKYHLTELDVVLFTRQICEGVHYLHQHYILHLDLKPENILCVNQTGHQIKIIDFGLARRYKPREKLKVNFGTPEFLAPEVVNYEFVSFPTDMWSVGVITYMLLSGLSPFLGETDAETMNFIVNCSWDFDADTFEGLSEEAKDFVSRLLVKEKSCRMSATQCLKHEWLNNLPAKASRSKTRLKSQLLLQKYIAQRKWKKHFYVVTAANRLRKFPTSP
Sequence of UniProt P00942 (whole entry, unmodified, looked up): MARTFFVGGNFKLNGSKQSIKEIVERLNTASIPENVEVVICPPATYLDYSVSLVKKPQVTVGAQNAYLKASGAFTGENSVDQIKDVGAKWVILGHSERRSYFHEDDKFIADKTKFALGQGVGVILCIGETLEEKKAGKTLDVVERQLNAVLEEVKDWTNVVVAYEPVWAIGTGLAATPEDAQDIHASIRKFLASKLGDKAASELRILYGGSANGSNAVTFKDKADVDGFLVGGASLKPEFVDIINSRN
Sequence of UniProt H2K887 (whole entry, looked up): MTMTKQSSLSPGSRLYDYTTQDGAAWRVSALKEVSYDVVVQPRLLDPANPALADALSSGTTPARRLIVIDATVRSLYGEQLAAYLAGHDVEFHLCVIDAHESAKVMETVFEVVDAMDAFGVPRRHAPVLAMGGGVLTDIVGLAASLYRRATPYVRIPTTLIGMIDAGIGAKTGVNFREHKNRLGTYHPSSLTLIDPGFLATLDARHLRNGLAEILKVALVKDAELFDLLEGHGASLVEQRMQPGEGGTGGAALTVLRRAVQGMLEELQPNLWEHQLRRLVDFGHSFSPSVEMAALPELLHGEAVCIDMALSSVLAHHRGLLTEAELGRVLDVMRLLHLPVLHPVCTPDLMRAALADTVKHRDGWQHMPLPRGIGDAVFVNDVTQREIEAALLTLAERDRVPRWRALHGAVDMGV
Sequence of UniProt P51170 (whole entry, looked up): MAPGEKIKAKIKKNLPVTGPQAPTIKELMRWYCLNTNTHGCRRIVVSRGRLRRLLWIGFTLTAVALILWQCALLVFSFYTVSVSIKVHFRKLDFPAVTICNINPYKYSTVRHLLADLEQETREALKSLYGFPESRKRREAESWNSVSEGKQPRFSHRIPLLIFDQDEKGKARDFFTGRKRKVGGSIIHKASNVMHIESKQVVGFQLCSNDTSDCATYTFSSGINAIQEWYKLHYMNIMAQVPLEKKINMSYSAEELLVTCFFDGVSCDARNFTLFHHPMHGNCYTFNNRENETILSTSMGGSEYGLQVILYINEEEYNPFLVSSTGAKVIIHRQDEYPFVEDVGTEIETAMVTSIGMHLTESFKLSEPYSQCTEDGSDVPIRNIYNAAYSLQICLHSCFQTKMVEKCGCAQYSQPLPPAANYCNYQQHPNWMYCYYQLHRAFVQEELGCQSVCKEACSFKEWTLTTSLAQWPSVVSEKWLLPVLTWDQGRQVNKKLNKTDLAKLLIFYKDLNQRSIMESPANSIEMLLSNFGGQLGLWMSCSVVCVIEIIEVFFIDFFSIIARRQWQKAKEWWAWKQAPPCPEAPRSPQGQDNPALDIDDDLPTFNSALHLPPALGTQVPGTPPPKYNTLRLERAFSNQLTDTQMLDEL

SMILES | target | assay | test system | conditions | scale | endpoint | result
COc1cc(Nc2ncc(F)c(Nc3ccc4c(n3)NC(=O)C(C)(C)O4)n2)cc(OC)c1OC | CSNK1A1 (Homo sapiens, UniProt P48729) | KINOMEscan | – | 10 µM | – | inhibition | 24%
C#CCCCCNC(=O)CI | 3-ketoacyl-CoA thiolase, mitochondrial (Homo sapiens, UniProt P42765) | mass spectrometry profiling | H460 cell lysate | 100 µM over 10 µM, UniProt P42765 | relative to: high over low concentration | reactivity ratio | 1.49
O=C(O)COP(=O)(O)O | TPI1 (Saccharomyces cerevisiae, UniProt P00942, S211G/Y208T) | enzyme activity, competitive inhibitor, GPDH/NADH-coupled | – | pH 6.4, 25 °C, ionic strength 0.1 NaCl, together with: glyceraldehyde 3-phosphate substrate | relative to: mutant over wild type | Ki ratio | 15
CC[C@H](C)[C@H](NC(=O)CNC(=O)[C@@H](N)CCCCN)C(=O)N[C@@H](CC(C)C)C(=O)N[C@@H](CCCCN)C(=O)N[C@@H](CCCNC(=N)N)C(=O)N[C@@H](CCC(=O)O)C(=O)N[C@@H](CCCCN)C(=O)N[C@@H](CCCNC(=N)N)C(=O)N[C@@H](CC(C)C)C(=O)N[C@@H](CCCNC(=N)N)C(=O)N[C@@H](CCCNC(=N)N)C(=O)N[C@@H](CCCCN)C(=O)N[C@@H](CC(N)=O)C(=O)N[C@H](C(=O)N[C@@H](Cc1c[nH]cn1)C(=O)N[C@@H](Cc1c[nH]c2ccccc12)C(=O)N1CCC[C@H]1C(=O)N[C@@H](CCC(=O)O)C(=O)N[C@@H](CCC(=O)O)C(=O)NCC(=O)N[C@@H](CCCCN)C(=O)N[C@@H](CC(C)C)C(=O)N[C@@H](CCCNC(=N)N)C(=O)N[C@@H](CCC(=O)O)C(=O)N[C@@H](Cc1ccccc1)C(=O)N[C@@H](Cc1ccccc1)C(=O)N[C@@H](Cc1ccccc1)C(=O)N[C@@H](Cc1ccccc1)C(=O)N[C@@H](CCC(=O)O)C(=O)N[C@@H](CC(C)C)C(=O)N[C@@H](CC(=O)O)C(=O)N[C@@H](CCC(=O)O)C(=O)N[C@@H](C)C(=O)N[C@@H](CCC(=O)O)C(=O)N[C@@H](CCCNC(=N)N)C(=O)N[C@H](C(=O)N[C@@H](CC(N)=O)C(=O)N[C@H](C(=O)O)C(C)C)C(C)C)C(C)C | PPP1CA (Homo sapiens, UniProt P62136) | binding, isothermal titration calorimetry | – | concentration not given, 25 °C, PP1α residues 7-330 | – | enthalpy change ΔH | -28.4 ± 1 kcal/mol
O=C(Nc1cnccc1Cl)N1CCN(Cc2ccc3c(c2)OC(F)(F)O3)CC1 | Vitamin D3 receptor (VDR, Homo sapiens, UniProt P11473) | radioligand binding, inhibitor | – | 10 µM, human, together with: [3H]1alpha,25-dihydroxyvitamin D3 | – | inhibition | 0%
CCn1c(-c2nc3cc(C(=O)N4CCC[C@@H](N)C4)cc(OC)c3n2C)cc2cccnc21 | PADI3 (Homo sapiens, UniProt Q9ULW8) | – | – | – | relative to: Ki PADI3 over Ki PAD4 | selectivity ratio | 58
CC[C@H](C)[C@H](NC(=O)[C@@H](NC(=O)[C@@H](NC(=O)[C@H](Cc1ccccc1)NC(=O)[C@H](C)NC(=O)[C@H](CCCNC(=N)N)NC(=O)CNC(=O)[C@@H]1CCCN1C(=O)CN)C(C)C)[C@@H](C)O)C(=O)O | H-2 class I histocompatibility antigen, D-D alpha chain, 22 (H2-D1, Mus musculus, UniProt P01900) | NMR line shape | – | 25 °C, peptide-deficient H2-D/human β2m, TAPBPR, two-state model | – | koff | < 100 s⁻¹
CN1CCN(c2cc(-c3ccncc3)c(-c3ccc4ccccc4c3)nn2)CC1 | GLP2R (Homo sapiens, UniProt O95838) | – | – | 12.5 µM | – | activation | 25.7%
COc1ccc(N2C(=O)N(c3c(C)cccc3Cl)Cc3cnc(Nc4ccc(C5CCN(C)CC5)cc4OC)nc32)nc1 | RPS6KB1 (Homo sapiens, UniProt P23443) | kinase activity, inhibitor | – | 0.5 µM, kinase P70S6K1 | – | inhibition | 5.28%
CC[C@H](CO)Nc1nc(NCc2ccccc2)c2ncn(C(C)C)c2n1 | TTK (Homo sapiens, UniProt P33981) | KINOMEscan | – | 10 µM | direction not given | binding score | 8.8
Nc1ncc(-c2nc(N3CCOCC3)nc(N3CCOCC3)n2)c(C(F)F)n1 | RET (Homo sapiens, UniProt P07949) | KINOMEscan | – | 10 µM | – | remaining binding | 100%
CC(CCn1ccc(-c2ccc(-c3cn(Cc4cccnc4)nn3)cc2)cc1=O)(C(=O)NO)S(C)(=O)=O (stereo not shown) | UDP-3-O-acyl-N-acetylglucosamine deacetylase (Pseudomonas aeruginosa, UniProt P47205) | – | – | – | relative to: 1 | residence time | ~3 fold
C[C@@H](O)[C@H](NC(=O)[C@H](Cc1ccccc1)NC(=O)[C@H](Cc1ccccc1)NC(=O)[C@H](CC(=O)O)NC(=O)[C@H](CC(=O)O)NC(=O)[C@H](Cc1c[nH]c2ccccc12)NC(=O)[C@H](CO)NC(=O)[C@@H](N)CCCCN)C(=O)N[C@@H](CCCNC(=N)N)C(=O)O | Epithelial sodium channel subunit gamma (Homo sapiens, UniProt P51170) | binding, bio-layer interferometry | – | – | – | kon | 30000 M⁻¹ s⁻¹
C[N+](C)(C)C | Chrnd/Chrna1/Chrne (Mus musculus, UniProt P02716+P04756+P20782, G173S/S470W) | ligand binding, agonist, single-channel kinetics | – | chain S | relative to: wild type over mutant | affinity ratio | 1.7
O=C(NO)[C@H]1COC(c2c[nH]c3ccc(F)cc23)=N1 | UDP-3-O-acyl-N-acetylglucosamine deacetylase (Pseudomonas aeruginosa, UniProt P47205, C40S) | ITC | – | concentration not given, 298 K | – | ΔS of binding | 0.109 kJ/(mol·K)
CC(=O)[C@]1(O)Cc2c(O)c3c(c(O)c2[C@@H](O[C@H]2C[C@H](N)[C@H](O)[C@H](C)O2)C1)C(=O)c1ccccc1C3=O | blaNDM-1 (Klebsiella pneumoniae, UniProt C7C422) | inhibitor | – | – | – | Hill coefficient | 1.1
COc1cc(N)c(Cl)cc1C(=O)NC1CN2CCC1CC2 (stereo not shown) | G-protein coupled receptor 83 (GPR83, Homo sapiens, UniProt Q9NYM4) | β-arrestin recruitment, TANGO luminescence, refers to: GPR83 | – | concentration not given | relative to: basal luminescence | log2 fold change | 0.04

SMILES | target | assay | test system | conditions | scale | endpoint | result
CC1(C)[C@H](C(=O)O[C@H](C#N)c2cccc(Oc3ccccc3)c2)[C@@H]1C=C(Br)Br | uncharacterized protein | enzyme activity, inhibitor | Sf9 cell homogenate | 0.04545 µM, 0.1667 h, together with: α-naphthyl acetate substrate | relative to: no inhibitor | remaining activity | 99.1%
C[C@H]1CN(c2n[nH]c3nc(N[C@H]4CC[C@H](NS(=O)(=O)CCC(F)(F)F)CC4)ncc23)CCO1 | WNK1 (Homo sapiens, UniProt Q9H4A3) | inhibitor, Kinobeads competition profiling | – | 20 µM | relative to: vehicle | relative abundance | 1.15
CNC(=O)Oc1cccc2c1OC(C)(C)O2 | uncharacterized protein | enzyme activity, inhibitor | Sf9 cell homogenate | 9.302 µM, 0.1667 h, together with: α-naphthyl acetate substrate | relative to: no inhibitor | remaining activity | 47.2%
O=C(Nc1cccnn1)N1CCC(=Cc2cccc(Oc3ccc(C(F)(F)F)cn3)c2)CC1 | Calumenin (Calu, Rattus norvegicus, UniProt O35783) | competitive ABPP with azido-FP probe | rat brain soluble fraction | 0.1 µM, unit not given | relative to: DMSO | probe labelling | -13.3
C[C@]12CC[C@H]3[C@@H](CCC4=CC(=O)CC[C@@]43C)[C@@H]1CC[C@@H]2C(=O)CO | CYP11B2 (Homo sapiens, UniProt P19099, A320V) | – | – | – | – | k2 | 0.34 ± 0.06 s⁻¹
Nc1ncnc2c1ncn2[C@@H]1O[C@H](COP(=O)(O)OP(=O)(O)NP(=O)(O)O)[C@@H](O)[C@H]1O | Cell cycle histidine kinase CckA, G318A; cytoplasmic region (Caulobacter vibrioides, UniProt Q9X688, G318A) | ITC | – | without c-di-GMP | – | ΔS | 4.01 cal/mol/K
O=P(O)(O)OC[C@H]1C[C@](O)(CO)[C@@H](O)[C@H](O)[C@@H]1O | valA (Streptomyces hygroscopicus, UniProt H2K887) | phosphate release | – | 100 µM | – | apparent Vmax | 2.3 ± 0.3 µM/min
[2H]c1c([2H])c([C@]2([2H])CCCN2C(=O)C(C)(C)Oc2ccc3cn[nH]c3c2)c([2H])c([2H])c1C([2H])([2H])[2H] | MYLK3 (Homo sapiens, UniProt Q32MK0) | KINOMEscan | – | 1 µM | relative to: DMSO control | remaining binding | 98%
CCCCCCCCCC[N+](C)(C)C.[Br-] | Sodium channel protein type 4 alpha, BTX-activated (Oryctolagus cuniculus, UniProt G1SLL9) | – | – | concentration not given | – | k-1 | 75 s⁻¹
Nc1nc2c(ncn2[C@@H]2O[C@H](COP(=O)(O)OP(=O)(O)O)[C@@H](O)[C@H]2O)c(=O)[nH]1 | matB (Rhodopseudomonas palustris, UniProt Q6ND88, C106A/K488A/Q457C/R286C) | binding, intrinsic fluorescence | – | 250 µM, 1 µM matB, 10 mM MgCl2 | – | fluorescence ratio F+/F- | 0.97
CCCCC/C=C\C/C=C\C/C=C\C/C=C\CCCC(=O)NCCO | Trpv1 (Mus musculus, UniProt Q704Y3, S513T) | ion current, agonist, whole-cell patch clamp | – | S513T | relative to: 3 mM 2-APB | maximal open probability | 0.97 ± 0.16
O=C1c2ccccc2C(=O)C1C(=O)C(c1ccccc1)c1ccc(Cl)cc1 (stereo not shown) | Nuclear receptor subfamily 1 group I member 3 (Homo sapiens, UniProt Q14994) | – | cells | concentration not given | – | activity | inactive
C[C@H]1COCCN1c1nc(NCc2cccnc2C(F)(F)F)c2cccnc2n1 | DRD1 (Homo sapiens, UniProt P21728) | binding | – | CEREP panel | – | IC50 | > 100 µM
CN(C(=O)n1cnc(-c2ccc[n+]([O-])c2)c1)C1CCCCC1 | Adra1a (Rattus norvegicus, UniProt P43140) | radioligand binding | – | 50 µM, together with: [3H]prazosin | – | inhibition | 9%
O=C(c1ccc(Cl)cc1)N1CCN2C(=O)N(OC(=O)N3CCOc4ccccc43)C(=O)C2C1 (stereo not shown) | Dipeptidyl peptidase 2 (Homo sapiens, UniProt Q9UHL4) | MS-based ABPP | SW-620 conditioned medium | 10 µM, 1 h, 37 °C | relative to: compound over DMSO, lower = more inhibition | mean protein ratio | 1.05
COC(=O)[C@@]1(O)C[C@H]2O[C@]1(C)n1c3ccccc3c3c4c(c5c6ccccc6n2c5c31)C(=O)NC4 | MAPK3 (Homo sapiens, UniProt P27361) | ADP-Glo | – | 50 µM, together with: substrate MBP | – | remaining activity | 115%
NCCc1c[nH]c2ccc(O)cc12 | AANAT2 Rangifer tarandus | substrate, DTNB colorimetric | – | together with: acetyl-CoA | – | Km | 90 ± 30 µM

A few entries again:
SMILES | target | assay | test system | conditions | scale | endpoint | result
C[C@@H](O)[C@H](NC(=O)[C@H](Cc1ccccc1)NC(=O)[C@H](Cc1ccccc1)NC(=O)[C@H](CC(=O)O)NC(=O)[C@H](CC(=O)O)NC(=O)[C@H](Cc1c[nH]c2ccccc12)NC(=O)[C@H](CO)NC(=O)[C@@H](N)CCCCN)C(=O)N[C@@H](CCCNC(=N)N)C(=O)O | Epithelial sodium channel subunit gamma (Homo sapiens, UniProt P51170) | binding, bio-layer interferometry | – | – | – | kon | 30000 M⁻¹ s⁻¹
COC(=O)[C@@]1(O)C[C@H]2O[C@]1(C)n1c3ccccc3c3c4c(c5c6ccccc6n2c5c31)C(=O)NC4 | MAPK3 (Homo sapiens, UniProt P27361) | ADP-Glo | – | 50 µM, together with: substrate MBP | – | remaining activity | 115%
CC(CCn1ccc(-c2ccc(-c3cn(Cc4cccnc4)nn3)cc2)cc1=O)(C(=O)NO)S(C)(=O)=O (stereo not shown) | UDP-3-O-acyl-N-acetylglucosamine deacetylase (Pseudomonas aeruginosa, UniProt P47205) | – | – | – | relative to: 1 | residence time | ~3 fold
